Assay results pooled from the literature.
Lines come from different studies, so protocols differ. Values joined by “and” are separate records of one study, mostly repeats; a detail may differ.
Organism: Pseudomonas aeruginosa

Compound	assay	system	conditions	how to read	endpoint	result
O=C(CCCCCCCCCN=C=S)CC(=O)N[C@H]1CCOC1=O	elastin-Congo red	PAO1 wild type	100 µM, 20 h	reference: DMSO	elastase production	225%
CC[C@H](C)CCCCC(=O)N[C@@H](CCN)C(=O)N[C@H](C(=O)N[C@@H](CCN)C(=O)N[C@H]1CCNC(=O)[C@H]([C@@H](C)O)NC(=O)[C@H](CCN)NC(=O)[C@H](CCN)NC(=O)[C@H](CC(C)C)NC(=O)[C@@H](CC(C)C)NC(=O)[C@H](CCN)NC1=O)[C@@H](C)O	–	BAA-2797, mouse, BALB/c, peritonitis, peritoneal fluid	dose not given	–	peritoneal bacterial load	2.45 log CFU and 1.9 log CFU and 1.6 log CFU
COc1c(C)c(OCc2ccccc2)c(C)c(OCc2ccccc2)c1C(=O)/C=C/c1ccccc1	microbial killing, broth dilution	ATCC27853	–	–	MBC	> 5000 µg/mL
CCCC(O)c1nn[nH]c1-c1ccc(O)c(OC)c1 (centres unmarked)	microbial growth, absorbance	–	10 µM, 24 h	–	activity vs control	95%
CC(CCCOC(=O)CCC[N+](C)(C)C)C1CCC2C3CCC4CC(OC(=O)CCC[N+](C)(C)C)CCC4(C)C3CCC12C (centres unmarked)	microbial growth, disc diffusion	ATCC27853	125 µg/disc, 24 h	–	inhibition zone	9 mm
COc1cc(Cc2cnc(N)nc2N)cc(OC)c1OC.O=c1[nH]cc(F)c(=O)[nH]1	broth microdilution	–	48 h	–	MBC	16 µg/mL
O=C(Oc1cccccc1=O)c1ccc(Cl)cc1	microbial growth, broth dilution	ATCC27853	–	–	MIC80	> 100 µM
O=C(CCc1ccc(Br)cc1)N[C@H]1CCOC1=O	elastin-Congo red	PAO1 wild type	100 µM, 20 h	reference: DMSO	elastase production	94.9%
CC(=O)N[C@@H](CCCCN)C(=O)N1CCC[C@H]1C(=O)N[C@H](C(=O)N[C@@H](Cc1ccccc1)C(=O)N[C@@H](CCC(N)=O)C(=O)N[C@@H](Cc1ccccc1)C(=O)N[C@@H](CC(C)C)C(=O)N[C@@H](Cc1ccccc1)C(=O)N[C@@H](Cc1c[nH]cn1)C(=O)N[C@@H](CCC(=O)O)C(N)=O)C(C)C	flow cytometry	PAO1, hydrogel	concentration not given, 4 h, pH 7.4, 37 °C	–	PI-permeable cells	0.12%
O=C(Oc1cccccc1=O)c1ccccc1	microbial growth, broth dilution	ATCC27853	–	–	MIC80	> 71.4 µM
O=C(CCCOc1cccc(Br)c1)N[C@H]1CCSC1=O	elastin-Congo red	PAO1 wild type	100 µM, 20 h	–	elastase production	237%
CCCCCCCCCC(=O)Oc1c(C)c(OC)c2c(/C=C/c3ccccc3)c(CCCCCCCC)c(=O)oc2c1C	microbial killing, broth dilution	ATCC27853	–	–	MBC	> 5000 µg/mL
CCCCCCCCCNC(=O)CC(=O)c1ccccc1	elastin-Congo red	PAO1 wild type	100 µM, 20 h	–	elastase production	15%
COc1c(C)c(OS(=O)(=O)c2ccccc2)c(C)c(O)c1C(=O)/C=C/c1ccccc1	microbial killing, broth dilution	ATCC27853	–	–	MBC	> 5000 µg/mL
CCCC(=O)C#Cc1ccc(F)c(F)c1	static biofilm	PA14	10 µM, 24 h, static	reference: DMSO	biofilm formation	66%
CCCC(=O)Oc1c(C)c(OC)c2c(c1C)OC(=O)[C@@H](CC)[C@]2(O)/C=C/c1ccccc1 (racemic)	microbial killing, broth dilution	ATCC27853	–	–	MBC	> 5000 µg/mL
CC(C)C1=CC2=CCC3C(C)(C(=O)OCCC[N+](C)(C)C)CCCC3(C)C2CC1 (centres unmarked)	microbial growth, disc diffusion	ATCC27853	250 µg/disc, 24 h	–	inhibition zone	11 mm

A few entries again:
Compound	assay	system	conditions	how to read	endpoint	result
O=C(CCCOc1cccc(Br)c1)N[C@H]1CCSC1=O	elastin-Congo red	PAO1 wild type	100 µM, 20 h	–	elastase production	237%
CCCCCCCCCC(=O)Oc1c(C)c(OC)c2c(/C=C/c3ccccc3)c(CCCCCCCC)c(=O)oc2c1C	microbial killing, broth dilution	ATCC27853	–	–	MBC	> 5000 µg/mL
